Results from different studies.
Compare with care: the assays were run in different laboratories. Several values in a cell are separate wells, animals, samples, runs or records. pEC50, pIC50, pKd: −log10 of the molar value. Converted amounts (≈) assume the structure as drawn.

For `CC[C@@H]1CN2CC[C@@]3(O)C(=Nc4cccc(OC)c43)[C@@H]2C[C@@H]1/C(=C\OC)C(=O)OC`, the IC50 was 0.971 µg/mL (rabbit anti-mitragynine polyclonal antibody; antigen binding, competitor, competitive indirect ELISA; 0.001 to 50.0 µg/mL).
`CC(=O)[O-].F[P-](F)(F)(F)(F)F.[Co+2].c1ccc(CN2CCCNCCN(Cc3ccccc3)CCCNCC2)cc1` gave a pIC50 of under 4.82 (Leishmania donovani; THP-1-derived macrophages, intracellular amastigotes).
`CC[C@H](C)[C@H](NC(=O)[C@H](Cc1c[nH]c2ccccc12)NC(=O)[C@H](CCCNC(=N)N)NC(=O)[C@H](CCCCN)NC(=O)[C@H](CC(C)C)NC(=O)[C@H](CC(=O)O)NC(=O)[C@H](Cc1ccccc1)NC(=O)[C@H](C)NC(=O)[C@H](Cc1ccc(O)cc1)NC(=O)[C@H](CC(N)=O)NC(=O)[C@H](Cc1ccc(O)cc1)NC(=O)[C@H](CCCNC(=N)N)NC(=O)[C@H](Cc1ccc(O)cc1)NC(=O)[C@H](Cc1ccc(O)cc1)NC(=O)[C@@H](NC(=O)[C@H](CC(C)C)NC(=O)[C@H](C)NC(=O)[C@H](CC(N)=O)NC(=O)[C@H](Cc1ccc(O)cc1)NC(C)=O)[C@@H](C)CC)C(=O)N[C@@H](Cc1ccc(O)cc1)C(=O)N[C@@H](CC(C)C)C(N)=O` — result for “α4β7+ CCR9+ cells”: 9.09% (measured: HA-02 tetramer; antigen-experienced tetramer+ CD4 T cells, healthy adults, HLA-DRB1*0101; dose not given).
`CC/C=C\C/C=C\C/C=C\C/C=C\C/C=C\C/C=C\CCC(=O)Nc1ccn(C2OC(CO)C(O)C2(F)F)c(=O)n1` (centres unmarked) has a TGI of 14.8 µM (NCI/ADR-RES; NCI60 screen).
`O=C(O)CC[C@H](NC(=O)N[C@@H](CCCCNC(=O)[C@H](Cc1ccc2ccccc2c1)NC(=O)[C@H]1CC[C@H](CNC(=O)CNC(=O)CNC(=O)CNC(=O)CN2CCN(CC(=O)O)CCN(C(CCC(=O)NCCC[P+](c3ccccc3)(c3ccccc3)c3ccccc3)C(=O)O)CCN(CC(=O)O)CC2)CC1)C(=O)O)C(=O)O` (some centres unmarked) [terbium-161 labelled]: “cell retention of activity” 58% and 75% (PC-3 PIP; concentration not given, efflux).
Under “protection from contraction injury”, `CC(C)C[C@H]1NC(=O)[C@H](NC(=O)CN)CSSC[C@H]2NC(=O)[C@H]3CSSC[C@H](C(=O)N[C@H](CC(N)=O)C(=O)N[C@H](Cc4ccccc4)C(=O)N[C@H](CO)C(=O)N[C@H](Cc4ccccc4)C(N)=O)NC(=O)[C@@H](CC(C)C)NC(=O)[C@@H](CCCCN)NC(=O)[C@@H](Cc4ccccc4)NC(=O)[C@@H](CC(C)C)NC(=O)[C@@H](CCCCN)NC(=O)[C@@H](CO)NC(=O)[C@@H](CSSC[C@@H](NC(=O)[C@@H](CCCCN)NC(=O)[C@@H](Cc4c[nH]c5ccccc45)NC(=O)[C@@H](Cc4c[nH]c5ccccc45)NC(=O)[C@@H](Cc4ccccc4)NC(=O)[C@@H](CCC(=O)O)NC1=O)C(=O)N[C@H](CC(N)=O)C(=O)N1CCC[C@@H]1C(=O)N[C@H](CC(N)=O)C(=O)N[C@H](CC(=O)O)C(=O)N[C@H](CC(=O)O)C(=O)N[C@H](CCCCN)C(=O)N3)NC(=O)[C@@H](CCCCN)NC(=O)[C@@H](CC(C)C)NC(=O)[C@@H](CCCCN)NC(=O)[C@H]1CCCN1C(=O)[C@@H](CCCNC(=N)N)NC2=O` is recorded as about 43% (D2.mdx mouse; subcutaneous, 10 mg/kg, six weeks, 20 eccentric contractions).
For `CC[C@H](C)[C@H](NC(=O)[C@H](CCCCN)NC(=O)[C@H](CCCCN)NC(=O)[C@H](C)NC(=O)[C@@H](NC(=O)[C@H](C)NC(=O)[C@H](CC(C)C)NC(=O)[C@H](CC(C)C)NC(=O)[C@H](C)NC(=O)[C@H](CCCCN)NC(=O)[C@H](CC(C)C)NC(=O)[C@H](CC(N)=O)NC(=O)[C@@H](N)CC(C)C)C(C)C)C(=O)N[C@@H](CC(C)C)C(N)=O`, the pIC50 was 4.44 (U251MG; MTT; 24 h).
With `CC[C@H]1OC(=O)[C@H](C(C)C)NC(=O)[C@H](C)OC(=O)[C@@H](C(C)C)NC(=O)[C@@H](C(C)C)OC(=O)[C@H](C(C)C)NC(=O)[C@H](C)OC(=O)[C@@H](C(C)C)NC(=O)[C@@H](C(C)C)OC(=O)[C@H](C(C)C)NC(=O)[C@H](C)OC(=O)[C@@H](C(C)C)NC1=O` the selectivity ratio was 23 (U-87 MG; cell growth, SRB; reference: IC50 in HA over IC50 in U-87 MG).
`COc1ccc(-n2cc(C(=O)N3C[C@]4(OC(=O)c5ccccc5NC(C)=O)CC[C@H](OC)[C@@]56[C@@H]4C[C@@H]([C@@H]35)[C@@]3(O)C[C@H](OC)[C@H]4C[C@@H]6[C@]3(O)[C@H]4OC)nn2)cc1`: TNF-alpha level “decreased” (ELISA; ICR mouse, LPS-induced lung injury, BALF; oral, 5, 10, 15 mg/kg).
`COc1ccc2cc1Oc1ccc(cc1)C[C@H]1c3cc(c(OC)cc3CC[N@+]1(C)CCc1c[nH]c3ccccc13)Oc1c(OC)c(OC)cc3c1[C@H](C2)[N@@+](C)(CCc1c[nH]c2ccccc12)CC3` has a Stern-Volmer constant of 27200 M⁻¹ (mixed-sequence 12-bp dsDNA; DNA binding, ethidium bromide displacement; phosphate buffer, 10% DMSO; pH 7.2, 25 °C, dsDNA 10 µM, 10 mM NaCl, together with: ethidium bromide 5 µM).
For `Nc1ccc(/C=C/C(=O)N2CCc3c(oc4c(-c5ccc(F)cc5)cc(-c5ccc(C(=O)N6CCC(F)(F)CC6)cn5)cc34)C2)cn1`, protein level read “decreased” (MIA PaCa-2; western blot, measured: c-Myc; 0.05 to 5 µM, 72 h).
The pKd of `CC(C)C[C@H](NC(=O)[C@H](CCCNC(=N)N)NC(=O)[C@H](CO)NC(=O)[C@H](Cc1c[nH]cn1)NC(=O)[C@H](CCCNC(=N)N)NC(=O)[C@@H]1CCCN1C(=O)[C@H](CCCNC(=N)N)NC(=O)[C@H](Cc1c[nH]cn1)NC(=O)[C@@H]1CCCN1C(=O)[C@H](CO)NC(=O)[C@H](CC(C)C)NC(=O)[C@H](CO)NC(=O)[C@H](CCCNC(=N)N)NC(=O)[C@H](CCCCN)NC(=O)[C@@H](NC(=O)[C@@H](NC(=O)CNC(=O)[C@H](CCCNC(=N)N)NC(=O)[C@H](Cc1c[nH]cn1)NC(=O)[C@H](Cc1c[nH]c2ccccc12)NC(=O)[C@H](Cc1ccccc1)NC(=O)[C@H](Cc1c[nH]cn1)NC(=O)[C@H](Cc1ccc(O)cc1)NC(=O)[C@@H](N)Cc1ccc(O)cc1)C(C)C)[C@@H](C)O)C(=O)N[C@@H](CCC(N)=O)C(=O)N[C@@H](CCCNC(=N)N)C(=O)O` is reported as 5.16 (LPS, Escherichia coli 0111:B4; isothermal titration calorimetry; pH 7, 37 °C).
`COc1ccc(-c2ccn(CC[C@](C)(C(=O)NO)S(C)(=O)=O)c(=O)c2)c(F)c1` gave an MIC90 of 2 µg/mL (≈ 4.85 µM) (Stenotrophomonas maltophilia; microbial growth, broth dilution; clinical isolate).
`CC(C)[C@]12O[C@H]1[C@@H]1O[C@]13[C@]1(O[C@H]1C[C@H]1c4c(C(=O)c5ccccc5)oc(OC(=O)c5ccccc5)c4CC[C@@]13C)[C@@H]2O` has a pEC50 of 7.39 (AML patient cells; apoptosis, Annexin V flow cytometry; 24 h).
`CN(C)CCc1c[nH]c2ccc(Cl)cc12` — result for “Egr1 mRNA level”: “increased” (mouse, prefrontal cortex; intraperitoneal, 10 mg/kg, 30 min).
`[Cl-].[Cl-].[Ni+2].c1ccc(CN2CCNCCN(Cc3ccccc3)CCNCC2)cc1` gave an IC90 of over 20 µM (Leishmania donovani; parasite growth, resazurin; 72 h, amastigote).
For `CCCCCc1cc(O)c2c(c1)OC(C)(C)C1CCC(C)=CC21` (centres unmarked), “time to IOP return to baseline” read at most 2 h (rabbit, α-chymotrypsin-induced glaucoma; topical, 0.8% w/v).

Some of these lines once more:
`COc1ccc2cc1Oc1ccc(cc1)C[C@H]1c3cc(c(OC)cc3CC[N@+]1(C)CCc1c[nH]c3ccccc13)Oc1c(OC)c(OC)cc3c1[C@H](C2)[N@@+](C)(CCc1c[nH]c2ccccc12)CC3` has a Stern-Volmer constant of 27200 M⁻¹ (mixed-sequence 12-bp dsDNA; DNA binding, ethidium bromide displacement; phosphate buffer, 10% DMSO; pH 7.2, 25 °C, dsDNA 10 µM, 10 mM NaCl, together with: ethidium bromide 5 µM).
`CC(=O)[O-].F[P-](F)(F)(F)(F)F.[Co+2].c1ccc(CN2CCCNCCN(Cc3ccccc3)CCCNCC2)cc1` gave a pIC50 of under 4.82 (Leishmania donovani; THP-1-derived macrophages, intracellular amastigotes).
